Results collected from several papers.
Numbers after ± are the reported error.
Cell line: A2780

With `Cc1cc(C)c(N[C](NCc2ccc(N[C](Nc3c(C(C)C)cccc3C(C)C)=[Pt-]([Cl])([Cl])[C]#[N+]c3c(C(C)C)cccc3C(C)C)cc2)=[Au][Cl])c(C)c1` the IC50 was over 100 µM (cell growth or viability).
For `COc1ccc(CC2COC(=O)C2Cc2ccc3c(c2)OCO3)cc1OC` (mixture of isomers), protein level read “increased” (western blot, item: PUMA; IC50, 48 h; baseline: 0 h).
With `CC(C)c1cccc(C(C)C)c1N1CCN(c2c(C(C)C)cccc2C(C)C)C1=[Se].[Cl][Au]` the IC50 was 0.6 µM (cell growth or viability, MTT; 72 h).
Under mRNA level, `CC(CCC(=O)OCc1cccc(CN(C(=O)OCc2ccc(B3OC(C)(C)C(C)(C)O3)cc2)[c-]2cccc2)c1)C1CCC2C3C(O)CC4CC(O)CCC4(C)C3CC(O)C12C.[Fe+2].c1cc[cH-]c1` (stereo not drawn) is recorded as “increased” (qPCR, item: CHOP; concentration not given, 24 h).
`CC(C)=CCC1=C([O-])C(=O)c2ccccc2C1=O.CC(C)=CCC1=C([O-])C(=O)c2ccccc2C1=O.Cc1cc2cccnc2c2ncccc12.[Cu+2]` has an IC50 of 0.3 ± 0.1 µM (cell viability, MTT; 48 h).
`C#CCN(C(=O)OCc1ccc(C(=O)N(C)C)cc1)[c-]1cccc1.[Fe+2].c1cc[cH-]c1`: “total ROS level” 6.1 ± 0.7 fold (CM-DCFH-DA; 25 µM, 2 h; baseline: DMSO).
For `CC(C)c1cccc(C(C)C)c1[N+]#[C][Pd-]([Cl])([Cl])=[C](Nc1ccc(CN[C](Nc2c(C(C)C)cccc2C(C)C)=[Au][Cl])cc1)Nc1c(C(C)C)cccc1C(C)C`, the IC50 was over 100 µM (cell growth or viability).
`C#CCN(C(=O)OCc1ccc(B2OC(C)(C)C(C)(C)O2)cc1)[c-]1cccc1.[Fe+2].c1cc[cH-]c1`: lysosomal fluorescence “inactive” (acridine orange; 25 µM).
For `CC(C)c1cccc(C(C)C)c1-n1ccn(-c2c(C(C)C)cccc2C(C)C)c1=[Se].[Cl][Ag]`, the IC50 was 21.6 µM (cell growth or viability; 72 h, 3D culture).
For `Oc1ccccc1-c1nn(-c2ccccn2)[n+](-c2ccccc2)n1.[Br-]`, “time to saturated calcein fluorescence” read at most 1 h (calcein-AM, item: labile iron pool; 40 µM).
`Cc1cc(C)c(N[C](NCc2cccc(N[C](Nc3c(C(C)C)cccc3C(C)C)=[Pt-]([Cl])([Cl])[C]#[N+]c3c(C(C)C)cccc3C(C)C)c2)=[Au][Cl])c(C)c1` has an IC50 of over 100 µM (cell growth or viability).
Under “early apoptotic cells”, `CCCCCCCCCCCCCCCCNC(=O)[O][Pt]([Cl])([Cl])[O]C(=O)CCC(=O)O.N.N` is recorded as 55.9% (annexin V/PI flow cytometry; 0.2 µM, 72 h).
For `CC12CCC3c4ccc(OCCCOc5no[n+]([O-])c5S(=O)(=O)c5ccccc5)c(Br)c4CCC3C1CCC2O` (stereo not drawn), the intracellular nitrite was 57 µM (Griess; 100 µM, 150 min).
With `Cc1cc(C)c([N+]#[C][Pd-2]([Cl])([Cl])[C]#[N+]c2c(C)cc(C)cc2C)c(C)c1` the IC50 was over 100 µM (cell growth or viability).
Under “calcein fluorescence increase”, `[Br-].c1ccc(-c2nn(-c3ccccn3)[n+](-c3ccccc3)n2)cc1` is recorded as about 37% (labile iron pool, calcein-AM; 40 µM, 24 h).

For quick reference, copied from above:
`C#CCN(C(=O)OCc1ccc(B2OC(C)(C)C(C)(C)O2)cc1)[c-]1cccc1.[Fe+2].c1cc[cH-]c1`: lysosomal fluorescence “inactive” (acridine orange; 25 µM).
For `CC(C)c1cccc(C(C)C)c1-n1ccn(-c2c(C(C)C)cccc2C(C)C)c1=[Se].[Cl][Ag]`, the IC50 was 21.6 µM (cell growth or viability; 72 h, 3D culture).
